Assay results collected from several papers.
A part holds a random share of what one study measured. Positions count from the first letter of the parent shown.

Sample 1
Target: UBE2G1 UBC core domain (UniProt P62253)
Method: yeast two-hybrid
Sample: yeast
Setting: mostly zero background
Reference: not given
Direction: higher = stronger interaction
Quantity: lacZ reporter activity
B1: TRIM5 RING domain (UniProt Q9C035); chain ILVNVKEEVTCPICLELLTQPLSLDCGHSFCQACLTANHKKSMLDKGESSCPVCRISYQPENIRP
B2: RNF111 RING domain (UniProt Q6ZNA4); chain EGTEEDTEEKCTICLSILEEGEDVRRLPCMHLFHQVCVDQWLITNKKCPICRVDIEAQLPSE
B3: VPS41 RING domain (UniProt P49754); chain KGVLVDEENICESCLSPILPSDAAKPFSVVVFHCRHMFHKECLPMPSMNSAAQFCNICSAKNRGPGSAI
B4: RNF38 RING domain (UniProt Q9H0F5); chain PNNHQSEQTLCVVCMCDFESRQLLRVLPCNHEFHAKCVDKWLKANRTCPICRADASEVHRDS
B5: RC3H1 RING domain (UniProt Q5TC82); chain QAPQWTDFLSCPICTQTFDETIRKPISLGCGHTVCKMCLNKLHRKACPFDQTTINTDIELL
B6: TRAF5 RING domain (UniProt O00463); chain FVERLEERYKCAFCHSVLHNPHQTGCGHRFCQHCILSLRELNTVPICPVDKEVIKSQEVFK
B7: DTX4 RING domain (UniProt Q9Y2E6); chain QKVRHPPDEDCTICMERLTAPSGYKGPQPTVKPDLVGKLSRCGHVYHIYCLVAMYNNGNKDGSLQCPTCKTIYGVKTGTQ
B8: TRIM40 RING domain (UniProt Q6P9F5); chain LQKDNQEEGVCPICQESLKEAVSTNCGHLFCRVCLTQHVEKASASGVFCCPLCRKPCSEEVLG
B9: TRIM43 RING domain (UniProt Q96BQ3); chain FSHAFQKELTCVICLNYLVDPVTICCGHSFCRPCLCLSWEEAQSPANCPACREPSPKMDFKT
Construct (chain): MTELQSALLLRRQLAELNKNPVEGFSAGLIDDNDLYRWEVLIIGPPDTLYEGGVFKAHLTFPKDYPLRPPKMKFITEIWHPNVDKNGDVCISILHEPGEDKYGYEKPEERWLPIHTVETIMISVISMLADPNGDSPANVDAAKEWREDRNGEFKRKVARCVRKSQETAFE
B1 (TRIM5 RING domain): 0
B2 (RNF111 RING domain): 0
B3 (VPS41 RING domain): 0
MPIRALCTICSDFFDHSRDVAAIHCGHTFHLQCLIQWFETAPSRTCPQCRIQVGKRTIIN (TRAIP RING domain (UniProt Q9BWF2)): 0
B4 (RNF38 RING domain): 0
B5 (RC3H1 RING domain): 0
B6 (TRAF5 RING domain): 0
GAAPGPEAAECLVCSELALLVLFSPCQHRTVCEECARRMKKCIRCQVVVSKKLRPD (MIB2 RING domain (UniProt Q96AX9)): 0
QVDKAVFHMQSVKCLKCQEQKRAVLPCQHAALCELCAEGSECPICQPGRAHTLQS (UNK RING domain (UniProt Q9C0B0)): 0
B7 (DTX4 RING domain): 0
B8 (TRIM40 RING domain): 0
ASLPTSEEDLCPICYAHPISAVFQPCGHKSCKACINQHLMNNKDCFFCKTTIVSVEDWE (RNF123 RING domain (UniProt Q5XPI4)): 0
B9 (TRIM43 RING domain): 0

Sample 2
Target: Histone acetyltransferase KAT6A, winged helix 1, GST fusion (KAT6A, Homo sapiens, UniProt Q92794, residues 1-85)
Method: protein binding microarray
Form: double-stranded DNA, one strand shown
Sample: in vitro
Concentration: not given
Setting: 8-mer, flanks averaged, mean of 2 arrays, mostly near background
Reference: not given
Direction: higher = stronger binding
Quantity: E-score
Target sequence (chain): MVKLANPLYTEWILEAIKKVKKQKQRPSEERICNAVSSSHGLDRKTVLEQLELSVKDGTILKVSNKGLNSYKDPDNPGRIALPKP
ATTCGTAA: -0.183
CAGAGCGG: 0.284
GTCGTCAA: -0.109
TCGATAAA: 0.172
TAGAAGAA: -0.191
GCGGCACA: 0.261
CGATTCTC: 0.00653
AATGGCGT: 0.168
ATTATTGA: -0.239
ATCATTGA: -0.00583
GAAAAATC: -0.185
GCCTAACA: -0.05
AAGCCCTA: -0.0484
CACGTCGG: 0.209
AAAGGATC: -0.0818
AGCGGCCC: 0.324
AAGAACCA: -0.0853
CGGTTGCA: 0.0155
ATCAATTC: -0.0997
CCTGTTAA: -0.211
ACGGGGAC: 0.25
GTTAGATA: -0.175
CACGCTCC: 0.034

Sample 3
Target: Phosphate system positive regulatory protein PHO4, full length, GST-tagged (PHO4, Saccharomyces cerevisiae, UniProt P07270, residues 1-312)
Method: competition protein-binding microarray
Form: double-stranded DNA, one strand shown
Sample: in vitro
Concentration: 2 µM
Setting: whole 60-bp probe, lowest competitor level
Added: Cbf1 competitor, 0.05 µM
Direction: higher = stronger binding
Quantity: fluorescence intensity
Target sequence (chain): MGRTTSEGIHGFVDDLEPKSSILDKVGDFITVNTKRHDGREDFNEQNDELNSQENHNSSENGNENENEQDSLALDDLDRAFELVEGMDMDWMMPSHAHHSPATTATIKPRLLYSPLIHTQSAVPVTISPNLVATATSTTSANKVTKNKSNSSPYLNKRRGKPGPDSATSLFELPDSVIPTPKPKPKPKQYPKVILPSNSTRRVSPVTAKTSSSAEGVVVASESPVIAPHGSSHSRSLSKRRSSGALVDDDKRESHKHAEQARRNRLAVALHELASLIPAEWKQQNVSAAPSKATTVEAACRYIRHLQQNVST
AGTGCTCATACGCATCATATGACATGGATGATACGGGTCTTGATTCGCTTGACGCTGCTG: 5870 a.u.
TCCTCTACCCGACGCTTCGTGGGTATGAGAAGTAGTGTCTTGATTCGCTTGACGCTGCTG: 8500 a.u.
AAATTACTAAGTTGTCACACAACTTACCCCGTATGAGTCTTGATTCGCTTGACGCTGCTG: 4420 a.u.
GTCTTATCTTTAGTGTGCGTGCAAACTGACTCATCGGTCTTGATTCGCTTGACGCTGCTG: 8410 a.u.
GCGGTCCCTTCTTCGGGCGTGATGGGCCGCTTTGGCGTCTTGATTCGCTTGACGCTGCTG: 3870 a.u.
CTTCTGTAAATTTGAGCCGTGGGTGGACGCGCCCCGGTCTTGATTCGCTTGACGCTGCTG: 4750 a.u.
ATCTTGTTGCTGTTCTACGTGCTTTAGTGTAGTATTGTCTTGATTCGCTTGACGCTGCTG: 8220 a.u.
TCCACACACCGTTCACACGTGCTTTATTTCTTTTTCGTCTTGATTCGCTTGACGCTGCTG: 18900 a.u.
GACCGAACGCCCAACATAAATTAGAATAAGTCGTCAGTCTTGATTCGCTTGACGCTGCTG: 3090 a.u.
ATCGTTCAATTTATCTTCGGCATTTTTCTGAATTTTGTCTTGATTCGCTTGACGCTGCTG: 3470 a.u.
AAATTACTAAGTTGAGTGGTGGGTGACGCCGTATGAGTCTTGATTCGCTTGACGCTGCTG: 4210 a.u.
AAATTACTAAGTTGGCGTGTGGGTGACGCCGTATGAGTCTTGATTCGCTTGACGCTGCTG: 5970 a.u.
CTAACGAAGGTTTGTCCCGTGGGTGACAAGCCAAGTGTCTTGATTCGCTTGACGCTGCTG: 7390 a.u.
CTAACGAAGGTTTGACCCGTGGGTGACAAGCCAAGTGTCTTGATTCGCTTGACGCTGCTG: 10300 a.u.
AGCCCGGCCGCTCACCACGTGCTCTCTGTTGTTGCTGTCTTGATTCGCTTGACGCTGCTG: 18000 a.u.
CTTCTGTAAATTTGTCACTCAACTTGACGCGCCCCGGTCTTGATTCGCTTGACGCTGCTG: 3550 a.u.
ACCGTAAAATGGCCTCACGTGGAACGCTCCCGTCTAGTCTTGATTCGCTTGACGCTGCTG: 14100 a.u.
GTTTAGGATATCGGTATCGTGGGTAAAACTCAACCAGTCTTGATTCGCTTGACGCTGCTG: 6940 a.u.
TGCGCAACAACTTGATGAGTGGGTGTATGTCTAGAAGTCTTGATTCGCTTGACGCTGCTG: 5050 a.u.
TTTTACGGACATAAGAACGTGCCGACCATTCTGGGAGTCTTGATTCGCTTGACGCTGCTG: 14500 a.u.
CTTCTGTAAATTTGTCGGGTGGGTGGACGCGCCCCGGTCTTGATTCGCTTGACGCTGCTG: 4280 a.u.
CTTCTGTAAATTTTTCACGTGAAATGACGCGCCCCGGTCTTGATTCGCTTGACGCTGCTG: 8030 a.u.
TCTCCCAAAATTTCACACGTGATGGGATGATTTTGGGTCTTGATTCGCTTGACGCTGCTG: 15600 a.u.
TTATTGGTGGACAGTCAGCTGACAGAAAACTTAGATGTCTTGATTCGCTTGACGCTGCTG: 3350 a.u.
CATTCGAGTCTATTGTGCGTGTTGGCTTAGATTCTTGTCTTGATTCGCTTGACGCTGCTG: 8080 a.u.

Sample 4
Target: CCNE1, cyclin fold, Cln2 fusion (human)
Method: yeast growth competition, sequencing
Sample: yeast
Setting: strong parent motif
Reference: not given
Direction: higher = stronger binding
Quantity: normalised enrichment score
Parent: E2F1 docking peptide (human); PPVKRRLDLETDH
PPNKRRLDLETDH [V3N]: 0.971
PPVKHRLDLETDH [R5H]: -0.236
PSVKRRLDLETDH [P2S]: 1.92
PYVKRRLDLETDH [P2Y]: 1.44
PPVKRRLDLETAH [D12A]: 1.34
PPVKRRLDLEVDH [T11V]: 1.97
PPVKYRLDLETDH [R5Y]: 0.0954
PPVKRRLMLETDH [D8M]: 2.45
PPVKRRLVLETDH [D8V]: 2.61
PPVKKRLDLETDH [R5K]: -0.0548
FPVKRRLDLETDH [P1F]: 2.19
PPVKWRLDLETDH [R5W]: 0.369
PNVKRRLDLETDH [P2N]: 2.5
PPVKRRCDLETDH [L7C]: 0.498
TPVKRRLDLETDH [P1T]: 0.786
PPVKRRADLETDH [L7A]: 0.104
PPVKRRLDLETDW [H13W]: 1.32
PPVKRRLDLEWDH [T11W]: 4.22
KPVKRRLDLETDH [P1K]: 2.06
PPVKRQLDLETDH [R6Q]: 2.02
PPVKRRLLLETDH [D8L]: 2.26

Sample 5
Target: JDP2, bZIP domain (human)
Method: DHFR protein complementation
Sample: yeast
Setting: single substitutions, most at no-binding floor
Reference: wild-type JUN-FOS pair
Direction: higher = stronger binding
Quantity: binding fitness
Parent: JUN, bZIP domain (human); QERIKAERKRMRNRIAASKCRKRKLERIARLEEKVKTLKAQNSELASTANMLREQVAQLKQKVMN; partner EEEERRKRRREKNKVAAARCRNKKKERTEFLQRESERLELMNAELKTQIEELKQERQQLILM
V56E: -0.741 natural log
A49E: 0.244 natural log
S47E: 0.349 natural log
R53L: 0.206 natural log
Q55N: 0.256 natural log
E33V: 0.221 natural log
Q41G: 0.108 natural log
E54N: 0.215 natural log
E32C: 0.15 natural log
A57M: 0.18 natural log
A57H: 0.289 natural log
L52C: -0.0338 natural log
E44I: 0.148 natural log
L52H: -0.0833 natural log
I28S: 0.212 natural log
L38E: 0.0635 natural log
R30F: 0.25 natural log
E32V: 0.226 natural log

Sample 6
Target: ABI1, truncated, D143A, DHFR fusion (Arabidopsis thaliana, UniProt P49597)
Method: DHFR PCA, dose-response
Sample: yeast
Setting: Hill fit, mean, not affinity
Added: (+)-ABA, dose series
Direction: lower = more sensitive
Quantity: ABA EC50
Parent: PYL1, truncated, DHFR fusion (Arabidopsis thaliana, UniProt Q8VZS8); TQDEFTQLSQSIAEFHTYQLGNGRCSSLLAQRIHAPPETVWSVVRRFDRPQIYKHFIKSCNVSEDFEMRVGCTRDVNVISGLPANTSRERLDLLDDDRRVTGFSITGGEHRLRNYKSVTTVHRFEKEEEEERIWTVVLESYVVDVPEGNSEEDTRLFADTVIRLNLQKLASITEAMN
Q31R: 6.3 µM
E131M: 2.69 µM
A30C: 1.87 µM
R46E: 10.7 µM
R98D: 42.8 µM
E4Y: 6.41 µM
Q10K: 2.94 µM
A30H: 1.91 µM
S59H: 5.14 µM
T17R: 9.44 µM
V118N: 15.7 µM
T73M: 1.6 µM
S63V: 3.5 µM
T86S: 0.701 µM
Q51T: 27.7 µM
S150W: 210 µM
E174W: 69.9 µM
R98Q: 4.81 µM

Some of these lines once more (sample 5):
S47E: 0.349 natural log
R53L: 0.206 natural log
Q55N: 0.256 natural log
E33V: 0.221 natural log
Q41G: 0.108 natural log
E54N: 0.215 natural log
E32C: 0.15 natural log
A57M: 0.18 natural log
A57H: 0.289 natural log
L52C: -0.0338 natural log
E44I: 0.148 natural log
L52H: -0.0833 natural log
I28S: 0.212 natural log
